Measurements from different studies.
Each line is one published result; not all experiments were run side by side. “And” joins repeats or separate records; there may be more than shown. ± marks the error that the study gave.

For `CCN(CCCCOc1ccc(CCC(=O)N2CCC(Cc3ccccc3)CC2)cc1OC)Cc1ccccc1`, the excretion rate was 0.0573 ± 0.0083% (Sprague-Dawley rats, both sexes, urine; oral gavage, 25 mg/kg, 0 to 48 h; baseline: dose).
`O=C1NC2(CC2)COc2ncc(F)cc2[C@H]2COCCN2c2ccn3ncc1c3n2` has a prothrombin time of 8.9 ± 0.5 s (Sprague-Dawley rat, male, plasma; oral, 5 mg/kg/day, end of treatment, 4-week repeated-dose toxicity).
`CC[C@H](C)[C@@H]1NC(=O)[C@H](Cc2ccc(O)cc2)NC(=O)CCCSC[C@@H](C(=O)N(CC(=O)N[C@@H](CC(C)C)C(=O)NCC(N)=O)Cc2ccc(F)cc2)NC(=O)[C@H](CC(N)=O)NC(=O)[C@H](CCC(N)=O)NC1=O` has a deaths of 0% (human; intranasal, 100 µg single dose).
`Cc1ccc(OC[C@H]2CCCN2C)cc1C(=O)N[C@H](C)c1cc(-c2cnn(C)c2)nc2ccccc12` gave a viability of 99.8% (African green monkey cells; 7.812 µM).
The accuracy of `O=C(O)/C=C\c1ccc2occc2c1O[C@@H]1O[C@H](CO)[C@@H](O)[C@H](O)[C@H]1O` is reported as 112% (post-procedure stability; rat plasma; 1000 ng/mL, 3 h, room temperature).
With `CC(C)C[C@H](NC(=O)[C@H](CCCNC(=N)N)NC(=O)[C@H](Cc1ccccc1)NC(=O)[C@H](Cc1ccccc1)NC(=O)[C@@H](N)[C@@H](C)O)C(=O)N[C@@H](Cc1ccccc1)C(=O)N[C@@H](CC(N)=O)C(=O)N[C@@H](CCCNC(=N)N)C(=O)N[C@@H](C)C(=O)N[C@@H](CCCCN)C(=O)N[C@@H](CCCNC(=N)N)C(=O)N[C@@H](Cc1c[nH]cn1)C(=O)N[C@@H](Cc1c[nH]cn1)C(=O)NCC(=O)N[C@@H](Cc1ccc(O)cc1)C(=O)N[C@@H](CCCCN)C(=O)N[C@@H](CCCNC(=N)N)C(=O)N[C@@H](CCCCN)C(=O)N[C@@H](Cc1ccccc1)C(=O)N[C@@H](Cc1c[nH]cn1)C(=O)O` the peptide concentration was 0.498 mg/mL (HPLC-UV; human saliva; 2 h, 37 °C, together with: initial 1 mg/mL).
`Cc1nc2cccc(OCC(C)(C)C(=O)NC(C)C)c2c(N)c1C(=O)[O-].[Na+]` has a revertant colonies of 25 ± 5 colonies/plate (Salmonella typhimurium; reverse mutation, plate incorporation; TA98; 0.051 mg/plate, without S9).
`CC(C)(c1cc(Br)c(O)c(Br)c1)c1cc(Br)c(O)c(Br)c1`: “dose fraction in permeate” 5.74% (ultrafiltration; cow milk whey; 2000 nM nominal in whole milk).
`CC(C)[C@@H]1NC(=O)CNC(=O)[C@H](CC(N)=O)NC(=O)[C@H](CCCNC(=N)N)NC(=O)[C@H](Cc2ccc(O)cc2)NC(=O)[C@H](C(C)C)NC(=O)[C@@H](NC(=O)[C@@H](NC(=O)[C@H](CC(N)=O)NC(=O)[C@H](Cc2c[nH]c3ccccc23)NC(=O)[C@H](C)NC(=O)[C@H](Cc2ccccc2)NC(=O)CNC(=O)[C@H](CCCCN)NC(=O)[C@H](Cc2ccccc2)NC(=O)[C@H](Cc2ccccc2)NC(=O)[C@H](CCCCN)NC(=O)OCC2c3ccccc3-c3ccccc32)C(C)C)CSSC[C@@H](C(=O)N[C@@H](Cc2c[nH]cn2)C(=O)N[C@@H](CCCNC(=N)N)C(=O)N[C@@H](CCCNC(=N)N)C(=O)N[C@@H](C)C(=O)N[C@@H](CC(N)=O)C(N)=O)NC(=O)[C@H](C(C)C)NC(=O)[C@H](CCCNC(=N)N)NC1=O` has an AST/ALT ratio of 0.55 ± 0.03 (ICR mouse, blood; intramammary, 5 mg/kg, day 5, 3 d dosing).
`CC[C@H](C)[C@H](NC(=O)[C@H](CCCCN)NC(=O)CNC(=O)[C@H](CC(C)C)NC(=O)[C@H](Cc1ccccc1)NC(=O)[C@H](CCCCN)NC(=O)[C@H](CO)NC(=O)[C@H](Cc1ccccc1)NC(=O)[C@H](Cc1c[nH]c2ccccc12)NC(=O)[C@H](CCC(N)=O)NC(=O)[C@@H](NC(=O)[C@H](Cc1ccccc1)NC(=O)CCCCCNC(=O)CN1CCN(CC(=O)O)CCN(CC(=O)O)CCN(CC(=O)O)CC1)C(C)C)C(=O)N[C@@H](CCC(=O)O)C(=O)N1CCC[C@H]1C(=O)N[C@@H](CC(=O)O)C(=O)N[C@H](C(=O)N[C@@H](CO)C(=O)N[C@@H](CCC(N)=O)C(=O)N[C@H](C(=O)N[C@@H](CCC(N)=O)C(=O)N[C@@H](CC(=O)O)C(=O)N1CCC[C@H]1C(=O)N[C@@H](CC(N)=O)C(=O)N[C@@H](CC(=O)O)C(=O)N[C@@H](CCC(N)=O)C(=O)N[C@@H](Cc1ccc(O)cc1)C(=O)N[C@@H](CCC(=O)O)C(=O)N1CCC[C@H]1C(=O)N[C@@H](Cc1ccccc1)C(=O)O)C(C)C)C(C)C` [copper-64 labelled] gave a tissue uptake of 0.21 ± 0.02 %ID/g (C57BL/6 mice, brain; together with: LPS 3 mg/kg intratracheal).
`CC(C)=CCC/C(C)=C\CCn1cc(CC(P(=O)(O)O)P(=O)(O)O)nn1` gave a Vd of 144 L/kg (CD-1 mouse, plasma; intravenous, 0.5 mg/kg, single dose).
`CC[C@H](C)[C@H](NC(=O)[C@H](Cc1c[nH]cn1)NC(=O)[C@H](CCCCN)NC(=O)[C@H](C)NC(=O)[C@H](C)NC(=O)[C@H](Cc1c[nH]cn1)NC(=O)[C@H](CCCNC(=N)N)NC(=O)CNC(=O)[C@H](Cc1c[nH]cn1)NC(=O)[C@H](CCCCN)NC(=O)[C@H](Cc1ccccc1)NC(=O)[C@@H](NC(=O)[C@H](CO)NC(=O)CNC(=O)[C@H](Cc1c[nH]c2ccccc12)NC(=O)CN)[C@@H](C)CC)C(=O)NCC(=O)N[C@@H](Cc1c[nH]cn1)C(=O)N[C@@H](C)C(=O)N[C@@H](C)C(=O)N[C@H](C(=O)N[C@@H](CC(N)=O)C(=O)N[C@@H](Cc1c[nH]cn1)C(=O)N[C@@H](Cc1ccc(O)cc1)C(=O)N[C@@H](CC(C)C)C(N)=O)C(C)C`: “acute toxic concentration” 25 µM (zebrafish embryos 28 hpf, E3 medium; 1 h).
`CCCCCCCCCCCC(=O)C(C)C(=O)N1CCC[C@H]1C(=O)NC(C)(C)C(=O)NC(C)(C)C(=O)NC(C)(C)C(=O)N[C@](C)(CC)C(=O)NCCC(=O)N[C@@H](C)C(=O)N[C@](C)(CC)C(=O)N[C@@H](C)C(=O)N[C@@H](CC(C)C)C(=O)N[C@](C)(CC)C(=O)NCCC(=O)N[C@@H](C)C(=O)N[C@](C)(CC)C(=O)NCCC(=O)N[C@@H](C)C(=O)NC(C)(C)C(=O)NC(C)(C)C(=O)NC(C)(C)C(=O)N[C@@H](C)C(=O)N[C@@H](CC(=O)O)C(=O)O` (stereo partly shown): “remaining intact peptide” 53.3% and 46% and 57.6% (LC-MS; buffer with human neutrophil elastase; 40 µM, 720 min, pH 7.5, 37 °C; baseline: 0 h).
The viability of `Cc1ccc(N2CCN(C)[C@H](C)C2)cc1C(=O)N[C@H](C)c1cc(-c2cnn(C)c2)nc2ccccc12` is reported as 0.785% and 0% (Vero E6; 500 µM).
The kidney weight of `CC(C)[C@H](NC(=O)[C@@H](NC(=O)[C@H](CCCNC(=N)N)NC(=O)[C@H](CCCNC(=N)N)NC(=O)[C@H](CCCNC(=N)N)NC(=O)[C@H](CCC(N)=O)NC(=O)[C@H](CCCNC(=N)N)NC(=O)[C@H](CCCNC(=N)N)NC(=O)[C@H](CCCCN)NC(=O)[C@H](CCCCN)NC(=O)[C@H](CCCNC(=N)N)NC(=O)CN)[C@@H](C)O)C(=O)N[C@H](C(=O)N[C@@H](CO)C(=O)N1CCC[C@H]1C(=O)O)[C@@H](C)O` is reported as 0.211 ± 0.037 g (ICR mouse, female, right kidney; intranasal, 20 mg/kg daily, 4 weeks).
For `COCC1CN(C2CCN(c3cc(OC)c(Nc4ncc(Br)c(Nc5ccc6c(c5P(C)(C)=O)OCCO6)n4)cc3C)CC2)C1`, “treatment-related AEs leading to death” read 0% (EGFR-mutant NSCLC patients; oral, 90 mg once daily).

A few entries again:
The kidney weight of `CC(C)[C@H](NC(=O)[C@@H](NC(=O)[C@H](CCCNC(=N)N)NC(=O)[C@H](CCCNC(=N)N)NC(=O)[C@H](CCCNC(=N)N)NC(=O)[C@H](CCC(N)=O)NC(=O)[C@H](CCCNC(=N)N)NC(=O)[C@H](CCCNC(=N)N)NC(=O)[C@H](CCCCN)NC(=O)[C@H](CCCCN)NC(=O)[C@H](CCCNC(=N)N)NC(=O)CN)[C@@H](C)O)C(=O)N[C@H](C(=O)N[C@@H](CO)C(=O)N1CCC[C@H]1C(=O)O)[C@@H](C)O` is reported as 0.211 ± 0.037 g (ICR mouse, female, right kidney; intranasal, 20 mg/kg daily, 4 weeks).
